Experimental data gathered from unrelated publications.
Parts stem from different laboratories: compare values within a part only.

Study 1
Target: RNA binding protein fox-1 homolog 2, RRM domain, GST-SBP tag (RBFOX2, Homo sapiens, UniProt O43251-10, residues 100-194)
Method: RNA Bind-n-Seq
Molecule type: RNA
Matrix: in vitro
Tested at: 365 nM
Setting: natural RNA segment, single round, ends assumed
Reference: no-protein control
Reading: higher = stronger binding
Constant ends, left off below: GGGAGUUCUACAGUCCGACGAUC … UGGAAUUCUCGGGUGCCAA
Target sequence (chain): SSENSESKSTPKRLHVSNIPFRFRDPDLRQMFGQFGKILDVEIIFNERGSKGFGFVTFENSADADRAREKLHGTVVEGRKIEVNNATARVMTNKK
Under “RBNS enrichment (R)”, `CCAGUAUUUAAGGGACCCUAACCUCCAAAAGAGGUACCCAUUGGCGCUCAACCGAAUUGCUGCUCAGGAGGUCCCCAUUGAGAUCAAGCCAGUAAACCCAUCCCCCCUGA` is recorded as 0.46.
For `UUAUUUAUUCAGGCUAUACCUACAAUAUGUGAAUCAAACUGUUUAAUGAAUCCUGGGACAUACUGAUGACUAUAAACUGGCCUCUCUGAGUCAUAGAAAAAUGGCCUUAU`, “RBNS enrichment (R)” read 0.334.
`CAUUUUAAUGAUACUCUUCCUUUCUUGAAAGUUACAUGUCCUCAUUUCUGUUUCUGCUUCUCCCUUGGCCAGUGUCAUUGAUGCAGAUCAUUGCAUACAACAGCACAGCA`: “RBNS enrichment (R)” 5.29.
For `GGGGGCCUCUCGAGGUCAGCCUCUCCAACCCCUACCUCAGCUCCUGUCUGCACUGAGAAACCUCCCCGGGUGAUGUCUGCAAAGUCUGUGCUGUCCGUGCCCCAGGCUGG`, “RBNS enrichment (R)” read 0.45.
`GGUAUGACUUUAUGUGUGGCAAAAACCCACAUUACCAAAGUAGUUUUUAACUACUGUAAUUUGUAAAUAAGUGUUGUGGCAGGUGGGAACCUUUAAAAGAUCAGUAAGAU` — result for “RBNS enrichment (R)”: 0.558.

Study 2
Target: Histone acetyltransferase KAT6A, both winged helices, GST fusion (KAT6A, Homo sapiens, UniProt Q92794, residues 1-181)
Method: protein binding microarray
Molecule type: double-stranded DNA, one strand shown
Matrix: in vitro
Tested at: not given
Setting: 8-mer, flanks averaged, mean of 2 arrays, mostly near background
Reference: not given
Reading: higher = stronger binding
Construct (chain): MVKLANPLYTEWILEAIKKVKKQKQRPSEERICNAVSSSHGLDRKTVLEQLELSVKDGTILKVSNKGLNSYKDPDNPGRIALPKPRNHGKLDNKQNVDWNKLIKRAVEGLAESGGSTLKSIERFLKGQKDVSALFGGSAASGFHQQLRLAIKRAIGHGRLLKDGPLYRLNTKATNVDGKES
`CCCGCAGG` gave an E-score of 0.211.
With `CAAAGTTG` the E-score was -0.0674.
The E-score of `AGATAAAC` is reported as 0.0528.
The E-score of `AATAGTCA` is reported as -0.142.

Study 3
Target: Interferon regulatory factor 5, full length, phosphomimetic (IRF5, Homo sapiens, UniProt Q13568-2, residues 1-514, K96S/S451D/S453D/S456D/S462D)
Method: protein-binding microarray
Molecule type: double-stranded DNA, one strand shown
Matrix: in vitro
Tested at: 250 nM
Setting: 60-bp whole probe
Added: salmon DNA 0.4 mg/ml
Reference: random background probes
Reading: higher = stronger binding
Constant ends, left off below: GCCTAGCAC … GTCTTGATTCGCTTGACGCTGCTG
The log fluorescence of `GACGATATCGGTATCGAGACGTGCTAG` is reported as 5.22 z-score.
The log fluorescence of `GACGAACTAAGTATCGAGACGTGCTAG` is reported as 1.77 z-score.
`GACGGACTGCTTTTCCTAACGTGCTAG` gave a log fluorescence of -0.214 z-score.
The log fluorescence of `TTAGGACGGGACACTGGGTTAGTGCTA` is reported as -0.513 z-score.
For `TCATATTTAAGCTCCTATACTGTGCTA`, the log fluorescence was 0.398 z-score.
`TTAGGTATCGGTATCGGTTAGTGCTAG` has a log fluorescence of 9.84 z-score.
`GACGGTTTCGGTTCCGGGCCGTGCTAG` gave a log fluorescence of 9.32 z-score.

Further values, each from its own experiment
For `PhoQ, residues 284 288 289 292 302 303 TVTVVA`, the fold induction was 5.65 (PhoP, residues 12 14 15 18 19 IFFTR (Escherichia coli, UniProt P23836); Sort-seq, item: YFP reporter; E. coli; PhoQ-PhoP variant library, added: 10 µM Mg2+; reference: high Mg2+ state, higher = stronger signaling).

Excerpt of the above (study 1):
`CAUUUUAAUGAUACUCUUCCUUUCUUGAAAGUUACAUGUCCUCAUUUCUGUUUCUGCUUCUCCCUUGGCCAGUGUCAUUGAUGCAGAUCAUUGCAUACAACAGCACAGCA`: “RBNS enrichment (R)” 5.29.
Under “RBNS enrichment (R)”, `CCAGUAUUUAAGGGACCCUAACCUCCAAAAGAGGUACCCAUUGGCGCUCAACCGAAUUGCUGCUCAGGAGGUCCCCAUUGAGAUCAAGCCAGUAAACCCAUCCCCCCUGA` is recorded as 0.46.
